Published values from different studies.
Each line is one published result; not all experiments were run side by side.
Organism: Staphylococcus aureus

Compound | test | test system | setting | MIC
C#CCOc1ccc(CN[C@@]2(C)C[C@H](O[C@H]3[C@H](Oc4c5cc6cc4Oc4ccc(cc4Cl)[C@@H](O)[C@@H](NC(=O)[C@@H](CC(C)C)NC)C(=O)N[C@@H](CC(N)=O)C(=O)N[C@H]6C(=O)N[C@H]4C(=O)N[C@H](C(=O)N[C@H](C(=O)NCC(N)=O)c6cc(O)cc(O)c6-c6cc4ccc6O)[C@H](O)c4ccc(c(Cl)c4)O5)O[C@H](CO)[C@@H](O)[C@@H]3O)O[C@@H](C)[C@H]2O)cc1OC |  | LIM-2 VISA |  | 2 µM
CCC(CC)c1cc(C2CN3CCC2CC3CNC)nc(-c2ccncc2)n1 (stereo not drawn) | microbial growth, broth dilution | ATCC29213 |  | 64 µg/mL
N=C(N)NCCC[C@@H]1NC(=O)[C@H](CCCNC(=N)N)NC(=O)[C@@H](CCCNC(=N)N)NC(=O)[C@H](C(c2ccccc2)c2ccccc2)NC(=O)[C@H](C(c2ccccc2)c2ccccc2)NC(=O)[C@H](C(c2ccccc2)c2ccccc2)NC(=O)[C@H](CCCNC(=N)N)NC1=O |  | 1195201, multidrug-resistant |  | 4 µg/mL
CN[C@H](CC(C)C)C(=O)N[C@H]1C(=O)N[C@@H](CC(N)=O)C(=O)N[C@H]2C(=O)N[C@H]3C(=O)N[C@H](C(=O)N[C@H](C(=O)O)c4cc(O)cc(O)c4-c4cc3ccc4O)[C@H](O)c3ccc(c(Cl)c3)Oc3cc2cc(c3O[C@@H]2O[C@H](CO)[C@@H](O)[C@H](O)[C@H]2O[C@H]2C[C@](C)(NCc3ccc(OCc4cn(CCCCC(=O)N[C@H](C(=O)N[C@@H](CCN)C(=O)N[C@H]5CCNC(=O)[C@H]([C@@H](C)O)NC(=O)[C@H](CCN)NC(=O)[C@H](CCN)NC(=O)[C@H](CC(C)C)NC(=O)[C@@H](CC(C)C)NC(=O)[C@H](CCN)NC5=O)[C@@H](C)O)nn4)c(OC)c3)[C@H](O)[C@H](C)O2)Oc2ccc(cc2Cl)[C@H]1O |  | NRS402 VISA |  | 0.75 µM
CC[C@H](C)[C@H](N)C(=O)N[C@@H](CCCNC(=N)N)C(=O)N[C@H](C(=O)N[C@@H](Cc1c[nH]c2ccccc12)C(=O)N[C@@H](Cc1ccccc1)C(=O)N[C@H](C(=O)N[C@@H](CCCCN)C(=O)N[C@H](C(=O)N[C@@H](CCCNC(=N)N)C(=O)N[C@@H](CCCCN)C(=O)N[C@@H](CCSC)C(=O)N[C@@H](CCCCN)C(=O)N[C@@H](C)C(=O)N[C@H](C(=O)N[C@@H](Cc1ccc(O)cc1)C(=O)N[C@@H](Cc1c[nH]cn1)C(=O)N[C@H](C(N)=O)[C@@H](C)O)[C@@H](C)CC)C(C)C)[C@@H](C)CC)C(C)C | broth dilution | ATCC 25923, Mueller-Hinton broth | 24 h, 37 °C | 50 µM
Oc1c(Br)cc(Br)c2nc3cc(C(F)(F)F)ccc3nc12 | broth microdilution | 25923 |  | 0.05 µM
CC(C)CCCCCCCCC/C=C/C(=O)N[C@@H](CC(=O)O)C(=O)N[C@H]1CNC(=O)[C@@H]2CCCN2C(=O)[C@H](C(C)C)NC(=O)[C@@H](CN)NC(=O)CNC(=O)[C@H](CC(=O)O)NC(=O)CNC(=O)[C@H](CC(=O)O)NC(=O)[C@H](CC(=O)O)NC(=O)[C@H]2CCCCN2C1=O | broth microdilution | BR-VRSA strain 880, Mueller-Hinton broth, Mg2+ 10 mg/L | 16 h, with: Ca2+ 5 mM | 2 µg/mL
CC[C@H](C)[C@H](NC(=O)[C@@H](CCCNC(=N)N)NC(=O)[C@H](CCCNC(=N)N)NC(=O)[C@@H]1CCCN1C(=O)[C@@H]1CCCN1C(=O)[C@H](CCCNC(=N)N)NC(=O)[C@@H]1CCCN1C(=O)[C@H](CCCNC(=N)N)NC(=O)[C@@H]1CCCN1C(=O)[C@H](CC(C)C)NC(=O)[C@H](Cc1ccc(O)cc1)NC(=O)[C@@H]1CCCN1C(=O)[C@H](Cc1ccccc1)NC(=O)[C@H](CCCCN)NC(=O)[C@H](CC(=O)O)NC(=O)[C@@H](N)C(C)C)C(=O)N[C@@H](Cc1ccc(O)cc1)C(=O)N[C@@H](CC(N)=O)C(=O)N[C@H](CCCNC(=N)N)C(N)=O | broth microdilution | DSM 6247 | 18 h, 37 °C, 25% MHB2 | > 128 µg/mL
CC[C@H](C)[C@H](N)C(=O)N1CCC[C@H]1C(=O)N[C@@H](Cc1ccccc1)C(=O)N[C@@H](Cc1c[nH]c2ccccc12)C(=O)N[C@@H](CCCNC(=N)N)C(=O)N[C@@H](Cc1c[nH]c2ccccc12)C(=O)N[C@@H](CC(C)C)C(=O)N[C@@H](CC(C)C)C(=O)N[C@@H](CCC(N)=O)C(=O)N[C@@H](CCCNC(=N)N)C(=O)N[C@@H](CC(C)C)C(=O)N1CCC[C@H]1C(=O)NCC(=O)O | broth microdilution | ATCC 29213 |  | 19 µM
CC[C@H](C)[C@H](NC(=O)[C@H](CCCCN)NC(=O)[C@H](Cc1c[nH]c2ccccc12)NC(=O)[C@H](Cc1c[nH]c2ccccc12)NC(=O)[C@H](CCCCN)NC(=O)[C@H](CCCCN)NC(=O)[C@H](CCCCN)NC(=O)[C@H](Cc1c[nH]c2ccccc12)NC(=O)[C@H](CCCCN)NC(=O)[C@H](CCCCN)NC(=O)[C@H](Cc1c[nH]c2ccccc12)NC(=O)[C@H](CCCCN)NC(=O)[C@H](CCCCN)NC(=O)[C@@H](NC(=O)[C@@H](NC(=O)[C@H](CCCCN)NC(=O)[C@@H](N)CCCNC(=N)N)[C@@H](C)CC)[C@@H](C)CC)C(=O)N[C@@H](Cc1c[nH]c2ccccc12)C(=O)N[C@@H](Cc1c[nH]c2ccccc12)C(=O)N[C@@H](CCCCN)C(N)=O | broth microdilution | 25295 |  | 1.25 µg/mL
Cc1ccc2[nH]c3c(c2c1)CCCC3NCCc1ccc(Br)cc1 (stereo not drawn) | broth microdilution | Mu50 VISA |  | 4 µg/mL
CN[C@H](CC(C)C)C(=O)N[C@H]1C(=O)N[C@@H](CC(N)=O)C(=O)N[C@H]2C(=O)N[C@H]3C(=O)N[C@H](C(=O)N[C@H](C(=O)NCc4cn(CCCCC(=O)N[C@H](C(=O)N[C@@H](CCN)C(=O)N[C@H]5CCNC(=O)[C@H]([C@@H](C)O)NC(=O)[C@H](CCN)NC(=O)[C@H](CCN)NC(=O)[C@H](CC(C)C)NC(=O)[C@@H](CC(C)C)NC(=O)[C@H](CCN)NC5=O)[C@@H](C)O)nn4)c4cc(O)cc(O)c4-c4cc3ccc4O)[C@H](O)c3ccc(c(Cl)c3)Oc3cc2cc(c3O[C@@H]2O[C@H](CO)[C@@H](O)[C@H](O)[C@H]2O[C@H]2C[C@](C)(N)[C@H](O)[C@H](C)O2)Oc2ccc(cc2Cl)[C@H]1O |  | VRSA 2 vanA |  | 25 µM
CC[C@H](C)[C@H](NC(=O)[C@@H]1CCCN1C(=O)CNC(=O)[C@H](CC(C)C)NC(=O)[C@H](CCCCN)NC(=O)[C@H](CCCNC(=N)N)NC(=O)[C@H](Cc1c[nH]c2ccccc12)NC(=O)[C@H](C)NC(=O)[C@H](CC(N)=O)NC(=O)[C@H](CCCCN)NC(=O)[C@H](CC(C)C)NC(=O)[C@H](CCCCN)NC(=O)[C@H](CC(N)=O)NC(=O)[C@H](CCCNC(=N)N)NC(=O)[C@H](C)NC(=O)[C@H](CCCNC(=N)N)NC(=O)[C@H](CCCNC(=N)N)NC(=O)[C@H](Cc1ccccc1)NC(=O)[C@H](Cc1c[nH]c2ccccc12)NC(=O)CN)C(=O)N[C@H](C(=O)NCC(=O)N1CCC[C@H]1C(=O)N[C@@H](CC(C)C)C(=O)N[C@@H](CC(C)C)C(=O)N[C@H](C(=O)N[C@@H](CCCNC(=N)N)C(=O)O)[C@@H](C)O)C(C)C | broth microdilution | ATCC 25923 |  | 0.94 log10 µg/mL
CC[C@H](C)[C@@H]1NC(=O)[C@@H]2CCCN2C(=O)[C@H](C)NC(=O)[C@H](CC(C)C)NC(=O)[C@@H]2CCCN2C(=O)[C@H](C)NC(=O)[C@@H]2CSSC[C@H](NC(=O)[C@H](C)NC(=O)[C@H](C)NC(=O)[C@H](Cc3ccc(O)cc3)NC(=O)[C@@H]3CCCN3C(=O)CNC(=O)[C@H](Cc3c[nH]c4ccccc34)NC1=O)C(=O)N[C@@H](CC(C)C)C(=O)N[C@@H](CO)C(=O)N[C@@H](C)C(=O)N[C@H]1CSSC[C@H](NC(=O)[C@H](C(C)C)NC(=O)[C@@H]3CCCN3C(=O)CNC(=O)CNC(=O)CNC(=O)[C@H](C)NC(=O)[C@H](C)NC(=O)[C@H](CC(C)C)NC1=O)C(=O)N[C@@H](CC(C)C)C(=O)N[C@@H](C)C(=O)N[C@@H](C(C)C)C(=O)N2 |  | ATCC 43300 |  | > 128 µg/mL
CC[C@H](C)[C@H](NC(=O)[C@@H](CCCNC(=N)N)NC(=O)[C@H](CCCNC(=N)N)NC(=O)[C@H](CCC(N)=O)NC(=O)[C@H](Cc1c[nH]c2ccccc12)NC(=O)[C@H](CCCNC(=N)N)NC(=O)[C@@H]1CCCN1C(=O)[C@H](CCCNC(=N)N)NC(=O)[C@@H]1CCCN1C(=O)[C@H](CC(C)C)NC(=O)[C@H](Cc1ccc(O)cc1)NC(=O)[C@@H]1CCCN1C(=O)[C@@H]1CCCN1C(=O)[C@H](CCCCN)NC(=O)[C@H](CC(=O)O)NC(=O)[C@@H](N)C(C)C)C(=O)N[C@@H](Cc1ccc(O)cc1)C(=O)N[C@@H](CC(N)=O)C(=O)N[C@H](CCCNC(=N)N)C(N)=O | broth microdilution | DSM 6247 | 18 h, 37 °C, 25% MHB2 | 64 µg/mL
CN[C@H](CC(C)C)C(=O)N[C@H]1C(=O)N[C@@H](CC(N)=O)C(=O)N[C@H]2C(=O)N[C@H]3C(=O)N[C@H](C(=O)N[C@H](C(=O)O)c4cc(O)cc(O)c4-c4cc3ccc4O)[C@H](O)c3ccc(c(Cl)c3)Oc3cc2cc(c3O[C@@H]2O[C@H](CO)[C@@H](O)[C@H](O)[C@H]2O[C@H]2C[C@](C)(NCc3ccc(OCc4cn(CC(=O)N[C@H](C(=O)N[C@@H](CCN)C(=O)N[C@H]5CCNC(=O)[C@H]([C@@H](C)O)NC(=O)[C@H](CCN)NC(=O)[C@H](CCN)NC(=O)[C@H](CC(C)C)NC(=O)[C@@H](CC(C)C)NC(=O)[C@H](CCN)NC5=O)[C@@H](C)O)nn4)c(OC)c3)[C@H](O)[C@H](C)O2)Oc2ccc(cc2Cl)[C@H]1O |  | LIM-2 VISA |  | 0.76 µM
CC(C)C[C@@H]1NC(=O)[C@H](CCCCN)NC(=O)CNC(=O)[C@H]2CCCN2C(=O)[C@H](CCCCN)NC(=O)[C@H](CC(C)C)NC(=O)[C@H](CCCCN)NC(=O)C2CCC=CCCC(NC(=O)[C@H](CCCCN)NC1=O)C(=O)N[C@@H](CCCCN)C(=O)NC(C(N)=O)CCC=CCCC(N)C(=O)N[C@@H](CCCCN)C(=O)N2 (stereo partly drawn) | broth microdilution | ATCC 29737, Mueller-Hinton broth | 18 h, 37 °C | 128 µM
Oc1c(Br)cc(Br)c2nc3cc(Cl)ccc3nc12 | broth microdilution | MRSA 1707 | 16 h, 37 °C | 0.08 µM

A few entries again:
Compound | test | test system | setting | MIC
N=C(N)NCCC[C@@H]1NC(=O)[C@H](CCCNC(=N)N)NC(=O)[C@@H](CCCNC(=N)N)NC(=O)[C@H](C(c2ccccc2)c2ccccc2)NC(=O)[C@H](C(c2ccccc2)c2ccccc2)NC(=O)[C@H](C(c2ccccc2)c2ccccc2)NC(=O)[C@H](CCCNC(=N)N)NC1=O |  | 1195201, multidrug-resistant |  | 4 µg/mL
